# Measured values from different studies.
# Every numbered part comes from another study and shows a few of its results, in no order. Substitutions count along the parent as printed.

# Block 1 — technique: protein-binding microarray; form: double-stranded DNA, one strand shown; sample: in vitro; concentration: 940 nM top; setting: 60-bp whole probe; together with: salmon DNA 0.4 mg/ml; relative to: random background probes; reading: higher = stronger binding; all sequences stand within: GCCTAGCAC … GTCTTGATTCGCTTGACGCTGCTG
# Target: Interferon regulatory factor 5, full length, phosphomimetic (IRF5, Homo sapiens, UniProt Q13568-2, residues 1-514, S451D/S453D/S456D/S462D)
Oligonucleotide,fitted relative affinity [z-score]
GACGCTTTCGGGACTGGAGACGTGCTA,1.57
TTAGGTATCGGTTTCGGTTGGTGCTAG,12.7
GGAAGCTTCTTTTTTATTCTGTGCTAG,0.901
GACGGTCTCGGGTTCGGGACGTGCTAG,1.76
TTAGATATCAGTATCGTTTAGTGCTAG,2.41
TCACAGCTCCCTTTCTCACTGTGCTAG,0.494
TTAGGACTGGACACTGGGTCAGTGCTA,-0.297
TTAGGTATCCTAATCCTTTAGTGCTAG,-0.104
TCTCCTCCAGGTTCTCTGACAGTGCTA,0.774
TATAGAGTAGTTTTTCAACCAGTGCTA,-0.202
ACCACTCTTGCTTTTTAGATGTGCTAG,1.14

# Block 2 — target: CCNB2, cyclin fold, Cln2 fusion (human); technique: yeast growth competition, sequencing; sample: yeast; setting: weak parent motif; relative to: not given; reading: higher = stronger binding
# Parent: SAMHD1 docking peptide (human); ASKSRVQLFKDDP; partner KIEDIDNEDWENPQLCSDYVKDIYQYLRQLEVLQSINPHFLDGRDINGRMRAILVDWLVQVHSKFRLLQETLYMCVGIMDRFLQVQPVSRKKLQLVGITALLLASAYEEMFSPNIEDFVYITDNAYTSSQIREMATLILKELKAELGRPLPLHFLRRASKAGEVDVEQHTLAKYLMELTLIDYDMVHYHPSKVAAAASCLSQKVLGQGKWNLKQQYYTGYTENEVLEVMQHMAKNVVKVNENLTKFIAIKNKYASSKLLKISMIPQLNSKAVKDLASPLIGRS
Change,normalised enrichment score
ASKSRVQLFFDDP [K10F],-0.372
AQKSRVQLFKDDP [S2Q],0.129
ASKSRVQLMKDDP [F9M],0.52
ASKSRVQLFKFDP [D11F],0.227
ASKSRVELFKDDP [Q7E],-0.269
ASKSRHQLFKDDP [V6H],-0.311
ASKSNVQLFKDDP [R5N],-0.369
ASKQRVQLFKDDP [S4Q],0.468
ASKRRVQLFKDDP [S4R],0.301
ASKSRVQLFKDCP [D12C],0.101

# Block 3 — technique: protein binding microarray; form: double-stranded DNA, one strand shown; sample: in vitro; concentration: not given; relative to: not given; reading: higher = stronger binding
# Target: Histone acetyltransferase KAT6A, both winged helices, GST fusion (KAT6A, Homo sapiens, UniProt Q92794, residues 1-181)
# Setting: 8-mer, flanks averaged, mean of 2 arrays, mostly near background
# Residues (chain): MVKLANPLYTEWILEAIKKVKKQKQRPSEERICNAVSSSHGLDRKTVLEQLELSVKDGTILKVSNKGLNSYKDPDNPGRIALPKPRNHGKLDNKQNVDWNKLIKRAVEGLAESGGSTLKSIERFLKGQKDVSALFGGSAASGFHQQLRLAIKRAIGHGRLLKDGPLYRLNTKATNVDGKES
Oligonucleotide,E-score
AACCAAGT,0.0688
AAAGAGGC,-0.13
GATCCAAC,-0.0216
TAACAGGA,-0.137
CAGTACGC,0.0558
CAGAGTTA,-0.02
AGAAGACC,-0.0923
AGCTCCGG,0.0014
TGGGCGAA,-0.0147
GAGCTCGA,-0.0633
CCCCCTCG,-0.0955
ACCCCTTC,-0.133
ACCTGCGG,0.162
AACTAGTC,-0.171
CACCCACG,0.083
GACAACGA,0.0118

# Block 4 — technique: DHFR PCA, deep sequencing; sample: yeast; together with: (+)-ABA 4.8 µM; relative to: wild-type fitted maximum; reading: higher = stronger binding
# Target: ABI1, truncated, D143A, DHFR fusion (Arabidopsis thaliana)
# Setting: methotrexate growth selection, single substitutions
# Parent: PYL1, truncated, DHFR fusion (Arabidopsis thaliana); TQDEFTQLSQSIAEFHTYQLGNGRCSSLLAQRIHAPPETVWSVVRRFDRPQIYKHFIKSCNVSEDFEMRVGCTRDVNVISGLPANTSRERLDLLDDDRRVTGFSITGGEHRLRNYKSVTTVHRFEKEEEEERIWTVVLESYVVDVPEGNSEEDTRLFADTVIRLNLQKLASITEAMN
Change,relative binding score [%]
G21S,74.8
R74A,1.51
V70G,8.46
V136L,68.2
G23I,6
L93A,33.3
R69L,50.5
P36K,60.5
D144N,15.4
R32A,56.1
N22T,75.5
I162Q,-13.6

# Block 5 — technique: protein-binding microarray; form: double-stranded DNA, one strand shown; sample: in vitro; concentration: 0.8 µM; setting: whole 60-bp probe, no competitor; reading: higher = stronger binding; all sequences stand within: … GTCTTGATTCGCTTGACGCTGCTG
# Target: Centromere-binding protein 1, full length, N-terminal tag (CBF1, Saccharomyces cerevisiae, UniProt P17106, residues 1-351)
# Chain of UniProt P17106 (whole entry, looked up): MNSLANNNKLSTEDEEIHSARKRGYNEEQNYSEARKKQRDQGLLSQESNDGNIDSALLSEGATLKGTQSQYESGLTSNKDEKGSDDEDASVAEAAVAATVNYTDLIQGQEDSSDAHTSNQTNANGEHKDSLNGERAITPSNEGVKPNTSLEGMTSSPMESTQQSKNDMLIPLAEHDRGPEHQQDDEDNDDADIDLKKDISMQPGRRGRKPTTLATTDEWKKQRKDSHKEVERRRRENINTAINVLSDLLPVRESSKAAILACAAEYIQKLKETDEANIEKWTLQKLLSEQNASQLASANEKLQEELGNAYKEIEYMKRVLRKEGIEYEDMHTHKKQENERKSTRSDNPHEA
Oligonucleotide,fluorescence intensity [a.u.]
CTATTACTTTTTTGTGACATCAAAATGAAGCACTTC,580
CTATGCTCGAGAAAGCATCACGTTTTCACACATTTC,1970
GAACGGTAACCAATTCACGTTGCCGATCGAGGTTAG,588
GAACCTTTTCTCAGTCTCCTGTTCGCTTGTCTGTAG,574
GAATCACGTGTGCCTGACCACCTTCTCCGAGCATAG,9360
CTAATACAGGAGTGCCACATGCGAAAGCGGAGTTTC,527
CCTAACTACTATAGTCATGATCAATAGCTTCGTACA,526
GAATAAAAGCTTTTGAAGGTGGTGTCATTATTATAG,520
CTAATACGAACGGATCACGATACATCCACATATTTC,784
CTAAAAAGAAACAAGCACGCGCAAGAAAACCGCTTC,992
CTAAGATCAAATCGAAACGGTCACAAACTTATGTTC,532
GAACTCAACTCGTTTGATGTTACTTTCTTTGCCTAG,468
CCTAACTACTATAAAGGCGTGGTATAGCTTCGTACA,537

# Block 6 — technique: RNA Bind-n-Seq; form: RNA; sample: in vitro; concentration: 365 nM; relative to: no-protein control; reading: higher = stronger binding
# Target: RNA binding protein fox-1 homolog 2, RRM domain, GST-SBP tag (RBFOX2, Homo sapiens, UniProt O43251-10, residues 100-194)
# Setting: natural RNA segment, single round, ends assumed
# All sequences stand within: GGGAGUUCUACAGUCCGACGAUC … UGGAAUUCUCGGGUGCCAA
# Residues (chain): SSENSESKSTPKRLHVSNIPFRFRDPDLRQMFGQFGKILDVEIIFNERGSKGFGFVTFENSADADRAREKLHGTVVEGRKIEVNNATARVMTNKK
Oligonucleotide,RBNS enrichment (R)
UGUCUACCUCUGACUUCUGUGGUCCCUCUGUGUCUGCUCUCAUCCAUUCCUCUUACUGGGGCCUGGGGCUCUAGCCCAAGGCUCAGAGGAGCCAAUAAACCUGUAAAUGA,0.371
GUCGUGAGCUCUCCUACAUCUAUUUCCGGUUUUGAUUCCAGUCAUACCAGUAUUUCCAUAACAGAGAAUGGUGAGCCCUAUGAUGCUGAAGGGAUUCCAUCUCUCCAUCU,0.765
UUCUCUUGUGACAUGUAUAAGUGCUGCUUACAUCACUCAACAGCAACAGAACGUGGUAGUGGAGUAGCUGUUGCCCUUCUCCGGCUGUGUGUACAGUAUGUGUGGAAUAA,0.614
UGCUUUGACCUGCAGAGACUUGUAGACCUCUUCUCUUCUCUGUCCCCUUGGUUACCACCUACCCACCUUGCCUAUUUUAAGUGAAACUUACCACCAAUGAUGUGGGGAAG,0.563
CCUCUUGGUAAGGAUAUUUGCUUACAAGUGCUAGGAAAUAACUCACUGAUACCUGCGUUAACAUACUUUGUUUUGCCUAGAGAGGGGCAAUAAAAAUGAACCAAAGGAUA,0.469
UUUCAGAAGGAAUACUUGGUUCUUUCUGGGGUCUCUAAUGUUCUCAGCCAAAACCUGGCCUGGCUACCAAGAAGAGUGGGAAGACAGGAGGAGCAGACUGCUGCUGUUUU,0.301
UCCGUGCGUCAGUGGCUGGCAGAAGAAAGACGCCUUUGUCUGUGUAAUGCCUCUGUUAACUUUGCCAGGAGCUUUGAGAGUCUGCCCUCUCCCACCCUUCCUGAACCAUG,0.357
AUGGGAGAGCUCUGGCAGAUGUCCCAAUCCUGGAGGUCAUCCAUUAGGAAUUAAAUUCUCCAGCCUCACUCUCGGCUCUUUCCUACUUGUUAGUAGUCUUGGGAUGGUGG,0.328
GGUGAAUCACCUGGCUGAGCAGUUCCCCUGGAGCCCCUUCGGGAGCAGGGCUGUGUCCCAGAUGGGCCACGGCUGAGCCUUCAGAGUACGUCCUGCCUGGCACUUACUGG,0.242
GUUUCCACAUUUUUUGCUUGUGGAAAGACUGUUUUCAUAUGUUCUACUUGGAUAAAGAAUUUAAAUGGAAUUACGUAUAAAUUAAUAUAAAAUGAUUACCUCUGGUGUUG,0.684
CCUUAGUUCUCAUAGAAAUUGUGGACCAAUAGGAUAUGUGCUGUGUAUAACUUUCUUUUUAAACUGUAAGUAAAGGGUCUUGCAGCUUUGUGCUUGUGUUAUCUUAGCAU,0.809

# Block 7 — technique: protein-binding microarray; form: double-stranded DNA, one strand shown; sample: in vitro; concentration: not given; reading: higher = stronger binding
# Target: Protein C-ets-1 (ETS1, Homo sapiens, UniProt P14921, residues 1-441, K379A, full length assumed)
# Setting: k-mer, scored over probes, only values ≥0.25
# Residues (chain): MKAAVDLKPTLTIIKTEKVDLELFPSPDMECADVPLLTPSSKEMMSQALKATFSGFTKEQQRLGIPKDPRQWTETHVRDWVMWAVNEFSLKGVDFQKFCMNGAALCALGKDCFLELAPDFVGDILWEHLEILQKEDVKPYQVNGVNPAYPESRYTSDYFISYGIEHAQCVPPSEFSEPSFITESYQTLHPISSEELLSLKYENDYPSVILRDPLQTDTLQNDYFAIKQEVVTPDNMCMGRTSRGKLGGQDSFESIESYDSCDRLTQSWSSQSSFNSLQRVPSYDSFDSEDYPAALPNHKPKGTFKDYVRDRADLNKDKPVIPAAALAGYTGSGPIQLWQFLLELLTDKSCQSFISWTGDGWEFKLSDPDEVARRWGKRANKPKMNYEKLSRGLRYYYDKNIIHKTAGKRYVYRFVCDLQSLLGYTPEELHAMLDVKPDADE
Oligonucleotide,E-score
CCGGTAAA,0.463
CCCCGGCA,0.34
CGTAACAA,0.265
CAATCAAC,0.277
GGTATACC,0.261
AATCCCGG,0.396
GACCGGTA,0.426
CTTCCGCC,0.313

# A few entries again (block 3):
Oligonucleotide,E-score
TGGGCGAA,-0.0147
GATCCAAC,-0.0216
ACCCCTTC,-0.133
CAGAGTTA,-0.02
AGCTCCGG,0.0014
GACAACGA,0.0118
GAGCTCGA,-0.0633
AAAGAGGC,-0.13
AGAAGACC,-0.0923
AACTAGTC,-0.171
ACCTGCGG,0.162
CAGTACGC,0.0558
CCCCCTCG,-0.0955
